# Results pooled from the literature.
# A part holds a random share of what one study measured. Changes are numbered by the printed parent chain.

# Series 1
# Target: ABI1, truncated, D143A, DHFR fusion (Arabidopsis thaliana)
# Method: DHFR PCA, deep sequencing
# Matrix: yeast
# Setting: methotrexate growth selection, single substitutions
# Added: (+)-ABA 4.8 µM
# Baseline: wild-type fitted maximum
# Reading: higher = stronger binding
# Parent: PYL1, truncated, DHFR fusion (Arabidopsis thaliana); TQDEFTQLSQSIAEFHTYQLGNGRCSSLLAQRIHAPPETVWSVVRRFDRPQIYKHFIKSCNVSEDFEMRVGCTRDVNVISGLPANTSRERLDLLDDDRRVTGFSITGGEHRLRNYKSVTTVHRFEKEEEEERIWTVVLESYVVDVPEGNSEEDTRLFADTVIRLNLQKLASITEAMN; partner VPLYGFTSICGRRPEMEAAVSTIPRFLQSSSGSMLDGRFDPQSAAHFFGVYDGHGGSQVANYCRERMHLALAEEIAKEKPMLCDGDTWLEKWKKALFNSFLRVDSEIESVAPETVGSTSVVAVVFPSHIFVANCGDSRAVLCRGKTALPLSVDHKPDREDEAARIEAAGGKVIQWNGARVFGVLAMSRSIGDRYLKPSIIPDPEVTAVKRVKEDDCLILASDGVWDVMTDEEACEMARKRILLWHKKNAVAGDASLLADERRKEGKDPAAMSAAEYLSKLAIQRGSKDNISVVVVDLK
Change,relative binding score [%]
I33A,0.636
I105T,6.45
F124A,59.1
D48F,-18.2
D96A,4.49
R69Q,65
W134A,58.8
K126R,86.7
R24A,51.8
E64H,69.8
R49W,-2.64
Q167Y,14.5
D96N,29.5
Q51M,32.8
E67S,61.6
T6P,82.2

# Series 2
# Target: RNA binding protein fox-1 homolog 2, RRM domain, GST-SBP tag (RBFOX2, Homo sapiens, UniProt O43251-10, residues 100-194)
# Method: RNA Bind-n-Seq
# Form: RNA
# Matrix: in vitro
# Concentration: 365 nM
# Setting: natural RNA segment, single round, ends assumed
# Baseline: no-protein control
# Reading: higher = stronger binding
# Construct (chain): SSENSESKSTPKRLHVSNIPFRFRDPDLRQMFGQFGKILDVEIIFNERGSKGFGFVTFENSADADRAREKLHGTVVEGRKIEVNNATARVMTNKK
Strand,RBNS enrichment (R)
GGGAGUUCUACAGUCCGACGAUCGUCAUGAAUGUUUCCCCUUUAUUUUUCCAAUAAAAAAAAGCAGUGGGAUGAAAAUUGCUUUGAUAUAUAGCAGGUAUAUUGAAGCUAUUCCAUAGCACUUAACUGUAGUGUGGAAUUCUCGGGUGCCAA,1.31
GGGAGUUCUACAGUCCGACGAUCAGUCCUGGCCCUGGCCCUUACUAUUAGGAAAAUAAACAGACAAAAACAAGUAAAUAUAUAUGGUCAUAUACAUAUUGUAUAUAUAUUCAUAUACAAACAUGUAUGUAUACUGGAAUUCUCGGGUGCCAA,0.526
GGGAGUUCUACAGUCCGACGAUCAUUUGUAUUAUGCUGGAAUUUUUUGGGCUUUCAGAUUUCUCUUUUUAACCACAUUUCUGAAUGUAUAAAAAUACCAAUUAUUUUCCUACAGCCCUUUGUACUUCAAAAUAUGGAAUUCUCGGGUGCCAA,0.968
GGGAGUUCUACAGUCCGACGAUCAUUUCUAUAAUCUAUUAAAAAAAAUGGAGAAUGUUUUCUCUCAAAUUUCCUCUGACCCAUGGGAAUGAAAAUACUUAAAUACUGUAAAGCAUAUCUAUUAAUAAUUCCCCUGGAAUUCUCGGGUGCCAA,0.39
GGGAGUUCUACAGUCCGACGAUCCAGAGGAAGGAGUCAGCAUCCUGAGCAUCCAGAAGAUUCAUGGAACCUGAAGUUGCCUCUGGAGCCUCCACUGAGGAACACGUACAGCAGAGUCCUUCAUCCCAUCUCCAUGGAAUUCUCGGGUGCCAA,0.434
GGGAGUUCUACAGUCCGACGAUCAUCCGCCCCUUAGAGCCCUCUGGCUAGAGGAGCCACCAGUGGAAAGGAAGACCCUCCAUCCUCUGGUAUUAACGCCUUAAUGCCCCUGUCUUUUACUGUAAGUUACUUAAUGGAAUUCUCGGGUGCCAA,0.271
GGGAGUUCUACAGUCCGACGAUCACAGCCCCGUAGAACCUGCAGUGUCCUGACUAAAGCUGCCGACUUGCUCUCAUUUGCAGUUUCUGUGUCAUGUUUGCUUCUUGAAUCUGAUUGACUAGAAUAUUUCUCCCUGGAAUUCUCGGGUGCCAA,0.846
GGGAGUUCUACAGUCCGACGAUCAGCGUGGCAUGCAGGUGUCUUUGCUGUGUUUUUCUCCACUUCUAAAUGGUUCCUGGUUCCUUUCUUCCUCGUUUGUUACUUUAGAGCAAGUUUGCCCAUAGUCUUGAAUGUGGAAUUCUCGGGUGCCAA,0.647

# Series 3
# Target: Fragile X messenger ribonucleoprotein 1, C-terminal low-complexity region (Fmr1, Mus musculus, UniProt P35922)
# Method: RNA Bind-n-Seq
# Form: RNA
# Matrix: in vitro
# Concentration: 200 nM
# Setting: whole 134-nt RNA, ends assumed
# Added: 150 mM KCl
# Baseline: input library
# Reading: higher = stronger binding
Strand,log2 enrichment
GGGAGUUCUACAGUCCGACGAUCAGUCCUGUGCUACACAUCGUAUGUACCGAAUCGGGGUUUUUUUGGGGUGGGGAGGGGAAAGUAUUAUGUUACGCCGUUCGGAUCUGCACUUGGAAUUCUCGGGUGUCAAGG,1
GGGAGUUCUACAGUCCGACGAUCCUCAAGUCCUGUGCUACACAUCGUAUGUACCGAAUCGGUUUUUGGUUUGGAGGAAAGUAUUAUGUUACGCCGUUCGGAUCUGCACUUCCAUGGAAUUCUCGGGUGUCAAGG,-0.426
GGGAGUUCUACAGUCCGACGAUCUCCUGUGCUACACAUCGUAUGUACCGAAUCGGGGUUUGGGGUUUUUGGGGUUUUUGGGGAAAGUAUUAUGUUACGCCGUUCGGAUCUGCAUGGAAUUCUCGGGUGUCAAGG,0.956
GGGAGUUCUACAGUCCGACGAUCGCAGGAAGUAAAAACAAAUGGAAAUGCUUCGGCUAGUGGCAGGGGUGGGGGUUGCUAAGGAAAGGGUGGGAUGGGAGUGGGUAAAGAGUUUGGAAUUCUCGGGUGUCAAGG,0.512
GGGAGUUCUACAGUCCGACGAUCACCAUGCAGGUGGGCAUCUUUGGGAAGUGGGGCAAGGGGGGGAUAGGGAGGGAAAUAACACUUUGGGAACAGGUGGUCCCAGGUCGUUUCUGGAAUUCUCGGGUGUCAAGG,0.622
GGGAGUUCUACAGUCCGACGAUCGUCCUGUGCUACACAUCGUAUGUACCGAAUCGGGGAAAGGGGUUUUUUUGGGGUGGGGAAAGUAUUAUGUUACGCCGUUCGGAUCUGCACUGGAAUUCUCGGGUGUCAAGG,0.553
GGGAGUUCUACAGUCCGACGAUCCACAGACAACACGCACCCACACAGAUACAGAGGGAAGGGGUUGGGAUGGGGACAGGGUGCACAGCAGGGCGGGGUAGGACCCCAGCCCCUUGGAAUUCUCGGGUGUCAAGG,1.23
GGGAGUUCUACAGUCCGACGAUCCACAGACAACACGCACCCACACAGACACAGAGGGAAGGGGUUGGGAUGGGGACAGGGUGCACCGCAGGGCGGGGUAGGACCCCAGCCCCUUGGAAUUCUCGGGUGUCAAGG,1.36
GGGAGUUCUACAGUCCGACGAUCUCAAGUCCUGUGCUACACAUCGUAUGUACCGAAUCGGGGUUGGGUUGGGUUGGGAAAGUAUUAUGUUACGCCGUUCGGAUCUGCACUUCCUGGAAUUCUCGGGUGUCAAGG,1.34

# Series 4
# Target: Histone acetyltransferase KAT6A, winged helix 2, GST fusion (KAT6A, Homo sapiens, UniProt Q92794, residues 85-181)
# Method: protein binding microarray
# Form: double-stranded DNA, one strand shown
# Matrix: in vitro
# Concentration: not given
# Setting: 8-mer, flanks averaged, mean of 2 arrays, mostly near background
# Baseline: not given
# Reading: higher = stronger binding
# Target sequence (chain): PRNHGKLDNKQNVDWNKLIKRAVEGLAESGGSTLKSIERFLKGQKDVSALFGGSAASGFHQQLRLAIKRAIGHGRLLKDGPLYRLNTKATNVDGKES
Strand,E-score
GAGCACGC,0.0418
ACATTACC,-0.231
CGCGATAA,0.00537
CCGTTTGC,0.00296
CAGGTGAA,0.0598
GCGAGTCC,-0.0315
ATTCTGAA,0.111
CCAAATAA,-0.0114
ATCTCTGC,-0.0109
ACACTAAA,0.122
CGGCACCG,0.236
CCTTGGGA,0.0743
TCCTTAGA,-0.101
GTGTCGAA,0.0328
ACGGTAGG,-0.201
CTCAAATC,-0.279
ATTGTGGC,0.0321

# A few entries again (series 4):
Strand,E-score
ATCTCTGC,-0.0109
ACACTAAA,0.122
CGGCACCG,0.236
CCTTGGGA,0.0743
TCCTTAGA,-0.101
GTGTCGAA,0.0328
ACGGTAGG,-0.201
CTCAAATC,-0.279
